Assay results gathered from unrelated publications.
Numbered parts are unrelated; each lists some results of a single study.
Sequence of UniProt O15294 (whole entry, looked up): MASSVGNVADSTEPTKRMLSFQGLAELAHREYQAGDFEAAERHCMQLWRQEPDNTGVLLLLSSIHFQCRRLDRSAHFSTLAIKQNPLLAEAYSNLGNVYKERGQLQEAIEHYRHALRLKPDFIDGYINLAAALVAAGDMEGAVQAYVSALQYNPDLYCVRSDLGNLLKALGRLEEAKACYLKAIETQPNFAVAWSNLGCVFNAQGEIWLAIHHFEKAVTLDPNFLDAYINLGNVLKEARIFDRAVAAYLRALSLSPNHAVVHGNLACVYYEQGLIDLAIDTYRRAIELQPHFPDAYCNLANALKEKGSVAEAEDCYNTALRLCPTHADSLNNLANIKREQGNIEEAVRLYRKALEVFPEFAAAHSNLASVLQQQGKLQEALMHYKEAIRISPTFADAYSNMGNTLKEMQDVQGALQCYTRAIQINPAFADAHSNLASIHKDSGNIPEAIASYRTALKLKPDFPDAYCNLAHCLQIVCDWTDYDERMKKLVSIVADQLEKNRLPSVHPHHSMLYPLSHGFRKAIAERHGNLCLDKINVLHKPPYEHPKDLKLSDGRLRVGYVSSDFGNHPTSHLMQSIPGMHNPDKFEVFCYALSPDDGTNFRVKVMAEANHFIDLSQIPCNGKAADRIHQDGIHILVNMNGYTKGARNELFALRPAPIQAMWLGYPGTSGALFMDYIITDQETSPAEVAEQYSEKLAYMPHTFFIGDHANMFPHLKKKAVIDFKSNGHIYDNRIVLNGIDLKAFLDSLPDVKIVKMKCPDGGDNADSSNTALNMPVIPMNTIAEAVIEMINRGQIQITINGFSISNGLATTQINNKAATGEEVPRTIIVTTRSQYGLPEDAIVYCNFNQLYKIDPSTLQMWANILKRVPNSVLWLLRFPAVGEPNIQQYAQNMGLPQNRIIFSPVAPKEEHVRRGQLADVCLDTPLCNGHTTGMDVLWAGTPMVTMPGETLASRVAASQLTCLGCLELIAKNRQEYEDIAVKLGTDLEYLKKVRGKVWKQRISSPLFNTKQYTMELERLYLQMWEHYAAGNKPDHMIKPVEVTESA

Study 1
Target: RNA binding protein fox-1 homolog 2, RRM domain, GST-SBP tag (RBFOX2, Homo sapiens, UniProt O43251-10, residues 100-194)
Technique: RNA Bind-n-Seq
Molecule type: RNA
Matrix: in vitro
Tested at: 365 nM
Notes: natural RNA segment, single round, ends assumed
Relative to: no-protein control
Reading: higher = stronger binding
All sequences stand within: GGGAGUUCUACAGUCCGACGAUC … UGGAAUUCUCGGGUGCCAA
Target sequence (chain): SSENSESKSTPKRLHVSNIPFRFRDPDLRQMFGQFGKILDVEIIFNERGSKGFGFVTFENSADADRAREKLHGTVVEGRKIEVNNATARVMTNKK
Oligonucleotide | RBNS enrichment (R)
UCUCUGCAUACACGAACCUAACCCAAAUUUGCUUUGGUGCCAGAAAAACUGAGCUAUGUUUGAACAAAGAUGUCGUGCAAACUGUACUGUGAACAACAGUUGGUUUAAAA | 0.509
GACAUUUCUUCAAACUCCAAACUACUACCAGAAACACAUUUUAUCACCCAUUGUGAGAGUCACUUGGUCAAAUUUAGUUAAUGAGUCCAUUUUGAUCAUAAUGCACUCAC | 0.798
UGUCUCAGGUCGUUGUCAUUUGCCCUCCCUCCAAUUUUGCUUCCCACCCCCACCACUCUACUGAAAGAAGAGAGCAACAGAGGUGAGGACCUGCUCUUCUCUAGUUCCAG | 0.322
ACUCACACACACUUGGUCAGAGAUGCUGUGCUUCUUGGAAGCAAGGACUCAAAGGCAAGGUGCACGCAGAGGACGUUUGAGUCUGGGAUGAAGCAUGUACGUAUUAUUUA | 17.4
CAGGCCUUAGGGACUCAUAAAGAUAUGAGUACAUUGCUUAUUGGAAACUUGUAGGUUCACAUAUUAUUUUGACUAAGGUAUAUGGAUUUCCCCCCACUUACAUAAGUAAA | 0.458
AAGGUGUAAGGUUUCCUAAGGGAUUACAACACAGUGGUUUCCUGGUCUCUCUCCCUGUCAUCAAUCAGGGUAGUAACUUGACUUAAGAAUACCACUUUUUAGAAAAAUUA | 0.243
AGAGGAAAUCUCCCAGUCCCACUCUCGGAGGGUUAAGAGAAGGCCUCCUGCAGCUGUGCCGUCCACACCUCUAGGUCGCCAGAGCCCUGGCCCCCAGCCCCCAGCAAGCC | 0.287
GGAUAGGGACAGCCCAGGUCACAGCCAGGGUCAACAGAGGUACCACAGAGCUACCUUUUGGGAUGAUUGCUUGAUUGUUUUUUUAUCUGAGAAUUCUAGAUAGAUAGCUA | 0.662

Study 2
Target: Prothrombin, mature alpha-thrombin (F2, Homo sapiens, UniProt P00734)
Technique: aptamer microarray, sandwich
Molecule type: DNA with 2'F-ANA
Matrix: in vitro
Tested at: 200 nM
Notes: whole 15-mer aptamer, many near background
Added: Cy3 exosite-II aptamer, 400 nM
Reading: higher = stronger binding
Oligonucleotide: GGTTGGTGTGGTTGG
Modification | mean fluorescence intensity [a.u.]
2'F-ANA at 2 4 5 8 9 10 12 13 14 | 43.4
2'F-ANA at 3 4 5 6 7 8 12 | 292
2'F-ANA at 2 3 4 6 7 8 11 12 13 14 15 | 250
2'F-ANA at 3 5 6 8 9 | 121
2'F-ANA at 2 5 6 10 11 13 14 | 56.4
2'F-ANA at 1 3 4 7 10 11 12 13 | 96.5
2'F-ANA at 1 2 6 9 11 12 13 14 | 56.2
2'F-ANA at 1 3 6 7 9 14 | 76.4

Study 3
Target: PABPC1L2, full length, GST fusion (mouse, UniProt A0ABA7IW68)
Technique: RNAcompete
Molecule type: RNA
Matrix: in vitro
Tested at: 20 nM
Notes: 7-mer, probes averaged, single round
Relative to: mean of 7-mers
Reading: higher = stronger binding
Target sequence (chain): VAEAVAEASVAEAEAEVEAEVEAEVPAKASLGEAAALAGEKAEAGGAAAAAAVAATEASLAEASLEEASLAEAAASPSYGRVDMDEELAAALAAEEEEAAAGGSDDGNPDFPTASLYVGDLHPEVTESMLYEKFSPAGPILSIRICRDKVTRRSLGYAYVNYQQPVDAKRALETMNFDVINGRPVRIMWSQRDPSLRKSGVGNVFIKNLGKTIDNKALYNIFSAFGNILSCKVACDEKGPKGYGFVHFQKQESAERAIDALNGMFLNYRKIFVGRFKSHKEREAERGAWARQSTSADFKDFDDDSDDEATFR
Oligonucleotide | 7-mer Z-score
CUACUCC | -0.209
AAAGUGG | 2.15
GUCGUCG | -0.47
CCGGCUA | -0.26
UACUCAG | -0.135
GUGAGUC | -0.4
CCGGAUG | -0.021
AUAUCUC | -0.226

Mixed results
Molecule | target | effect on | technique | molecule type | relative to | endpoint | result
HYMSHPIHLFKGHHN | UDP-N-acetylglucosamine--peptide N-acetylglucosaminyltransferase 110 kDa subunit (OGT, Homo sapiens, UniProt O15294) | phage display binding | phage display panning NGS | peptide | OGT-panned over input library | log2 fold enrichment | 2.09

A few entries again (study 3):
Oligonucleotide | 7-mer Z-score
CUACUCC | -0.209
GUCGUCG | -0.47
CCGGAUG | -0.021
AAAGUGG | 2.15
